# Experimental data pooled from the literature.
# Parts stem from different laboratories: compare values within a part only.
# Chain of UniProt Q92826 (whole entry, looked up): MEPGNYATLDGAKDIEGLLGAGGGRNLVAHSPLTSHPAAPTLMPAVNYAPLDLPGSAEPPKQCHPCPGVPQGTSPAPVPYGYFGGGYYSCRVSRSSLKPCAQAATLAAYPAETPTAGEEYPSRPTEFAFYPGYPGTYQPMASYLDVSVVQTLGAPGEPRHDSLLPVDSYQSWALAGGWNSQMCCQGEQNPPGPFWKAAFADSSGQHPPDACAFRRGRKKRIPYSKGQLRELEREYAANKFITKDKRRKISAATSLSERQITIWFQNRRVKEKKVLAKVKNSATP

# Series 1
# Target: Ras GTPase-activating protein-binding protein 1, RRM domain (G3BP1, Homo sapiens, UniProt Q13283)
# Chain of UniProt Q13283 (whole entry, looked up): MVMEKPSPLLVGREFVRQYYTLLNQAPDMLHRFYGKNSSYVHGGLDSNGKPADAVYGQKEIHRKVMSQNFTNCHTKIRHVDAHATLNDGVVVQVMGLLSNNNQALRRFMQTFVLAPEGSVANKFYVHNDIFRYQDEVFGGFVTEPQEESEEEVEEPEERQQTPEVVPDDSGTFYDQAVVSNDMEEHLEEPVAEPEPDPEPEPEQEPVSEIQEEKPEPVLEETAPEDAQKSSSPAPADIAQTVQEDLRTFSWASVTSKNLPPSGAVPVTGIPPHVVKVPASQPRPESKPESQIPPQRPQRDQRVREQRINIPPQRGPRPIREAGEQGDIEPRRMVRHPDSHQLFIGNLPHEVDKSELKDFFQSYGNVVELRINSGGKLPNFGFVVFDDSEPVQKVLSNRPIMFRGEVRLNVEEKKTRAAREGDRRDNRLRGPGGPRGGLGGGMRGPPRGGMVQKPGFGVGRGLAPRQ
# Technique: RNA Bind-n-Seq
# Form: RNA
# Medium: in vitro
# Concentration: 1 µM
# Setting: whole 134-nt RNA, ends assumed
# With: 150 mM KCl
# Relative to: input library
# Direction: higher = stronger binding
# All sequences stand within: GGGAGUUCUACAGUCCGACGAUC … UGGAAUUCUCGGGUGUCAAGG
Strand,log2 enrichment
UCCUGUGCUACACAUCGUAUGUACCGAAUCGGGGUGGGGUUUUUGGGGAAAAAAAGGGGAAAGUAUUAUGUUACGCCGUUCGGAUCUGCA,0.772
CUUCUUGCAUGCUCGGCUCCGGACAGCUACGCUUCGGCAUGACGCAGACGGGCAGGCCACCCUGUUGAACCUCCUGCUGCGGAAUUACCU,-0.318
AAGUCCUGUGCUACACAUCGUAUGUACCGAAUCGGGUUUUUUUGGGAAAGGGUGGGAAAGUAUUAUGUUACGCCGUUCGGAUCUGCACUU,0.459
GCAGGAAGUAAAAACAAAUGGAAAUGCUUCGGAUAGUGGCAGGGGUGGGGGUUGCUAAGGAAAGGGUGGGAUGGGAGUAAAUAAAGAGUU,1.14
UGGAUUAGAGAGAAAUUGAAUUUUUUCUUACUUGAACUCCUACUAAAAAGUGAACUAAAUAUUUUAUUGUAGUAAUGGCAUAGAGGAGCC,-0.528
CCUGUGCUACACAUCGUAUGUACCGAAUCAAACCCCCCCAAAUUUUUAAACCCCCCCAAAAAAGUAUUAUGUUACGCCGUUCGGAUCUGC,-1.52
UGGGAGGUGGAUUUUGUUUAUUUUUUUAGCUCAUUUCCAGGGGUGGGAAUUAUUUUUUAAUAUGUGUCAUGAAUAAAGUUGUUUUUGAAA,2.01
UCGGAGGUGGAUUUUGUUUAUUUUUUUAGCUCAUUUCCAGGGGUGGGAAUUUUUUUUUAAUAUGUGUCAUGAAUAAAGUUGUUUUUGAAA,2.2

# Series 2
# Target: RNA binding protein fox-1 homolog 2, RRM domain, GST-SBP tag (RBFOX2, Homo sapiens, UniProt O43251-10, residues 100-194)
# Technique: RNA Bind-n-Seq
# Form: RNA
# Medium: in vitro
# Concentration: 365 nM
# Setting: natural RNA segment, single round, ends assumed
# Relative to: no-protein control
# Direction: higher = stronger binding
# All sequences stand within: GGGAGUUCUACAGUCCGACGAUC … UGGAAUUCUCGGGUGCCAA
# Construct (chain): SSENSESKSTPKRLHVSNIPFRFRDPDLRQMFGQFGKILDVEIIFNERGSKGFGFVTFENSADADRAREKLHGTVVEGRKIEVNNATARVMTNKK
Strand,RBNS enrichment (R)
UUACUUCUGGCUGGUGACAGUAAAGCUGGAAAAUUAAUUUCAGGGUUUUUUGAGGCUUUUGACACAGUUAUUAGUUAAAUCAAAUGUUCAAAAAUACGGAGCAGUGCCUA,0.629
UACAUACAUAAAUAAAUAAAUAAAUAAAUAAAUAAUAGCUUAGGACAUUUGUAACUCUUAGUUAGACUUUCUAUUAAAUGGGACCAAAUGUGUGUAUGGGUGCUGUCAGU,0.651
CAAUGGUACAACUGCCCAAAUCCACCUUUGGUUUCUGAUGACUUACAAGUGACUAUAGAAGAAAGAGGCCUGGUCUUGAGCAGAGACUCUUGUUCGCAACUCAGAUCACA,0.343
UUAGUCAUGAUAAAAAUGAAGCUGUAAUAUCAAGGUCAUACAAGUAUAAACAUAUAUGUCCAAUUUUUAAACUACUUCCACCUUACAAGUUGUUCAAAAUACAUUAUUAG,0.617
CUCUGCAAGAGCCAUGCCUUCUCUCAUGUGUGAGCCCCUUCUGCCCACAGCUGCCGCGGUGGCCCCUAGCCUGAGGGGCCUGGAGUCGUGGCCCUGCAUUUCUGGGUAGG,0.95
UGAUGCCUUUGACAGUGAUGAAAACGAUUUCACCACAUCUGAAUCCAGAGAAACCGGCUUUUUUUCUUAUUGCGAGCAUGUUAAAACGUUGGGAACAUGUGGGGAAUUGU,2.35
GGAGGGUCGGUCCAUUACAGACCCACAUCCUGGAGCACCCCCAUCUCCAUGUGUGAAGUAGCUUCCUCCCUCAGCCUGCAAGGGUCCGAUUUGCCAUCGAAAGACGACCU,0.685
ACUGGACCUGCCCCACCCUCAGAUUCCUUAAAGGAUGAAGAGUGUGCUGUACACUCAGCAUAUGUGCCUCUUGUAUGCAAGGACUACUGAUUGAAGUCUGUUUUGCUGUG,0.34

# Series 3
# Target: Replicase polyprotein 1ab, polymerase (rep, Severe acute respiratory syndrome coronavirus 2, UniProt P0DTD1)
# Read-out: enzyme activity
# Action: inhibitor
# Concentration: 20 µM
SMILES,inhibition
C#C[C@]1(O)CC[C@H]2[C@@H]3CCc4cc(OC)ccc4[C@H]3CC[C@@]21C,7.72%
Cc1cc(Nc2cc(C)c(C#N)c(N[C@@H](C)CCCC(C)(C)O)n2)n[nH]1,-1.48%
CN(c1ncccc1CNc1nc(Nc2ccc3c(c2)CC(=O)N3)ncc1C(F)(F)F)S(C)(=O)=O,-4.72%
O=c1[nH]c2ccccc2c(=O)n1CCCN1CCN(c2ccccc2)CC1,1.89%
N[C@@H](COP(=O)(O)O)C(=O)O,1.32%
CCCN(CCC)C1Cc2cc(OC)c(OC)cc2C1,-2.81%
COc1ccc2[nH]cc(C3=CCNCC3)c2c1,-3.34%
CC(=O)N[C@@H](CSC/C=C(\C)CC/C=C(\C)CCC=C(C)C)C(=O)O,3.6%
COc1ccc(C(=O)c2ccccc2)c(O)c1,17.2%
C[n+]1ccccc1/C=N/O,1.51%
C[C@@H]1C(=O)O[C@H]2[C@H](O)[C@@]34[C@H]5C[C@@H](C(C)(C)C)[C@]36[C@@H](OC(=O)[C@@H]6O)O[C@@]4(C(=O)O5)[C@@]12O,4.14%
COC(=O)Nc1nc2cc(Sc3ccccc3)ccc2[nH]1,24.2%
COc1ccc(-c2nc3cc(C4=NNC(=O)CC4C)ccc3[nH]2)cc1 (stereo not shown),5.16%
CCO/N=C(\C(=O)N[C@@H]1C(=O)N2C(C(=O)[O-])=C(Sc3nc(-c4cc[n+](C)cc4)cs3)CS[C@H]12)c1nsc(NP(=O)(O)O)n1,1.1%
CCn1c(=O)c(-c2ccc(Cl)cc2Cl)cc2cnc(Nc3ccc(N4CCNCC4)c(F)c3)nc21,-9.48%
CN1CCCC(CN2c3ccccc3Sc3ccccc32)C1 (stereo not shown),5.83%
CC1(C)OC[C@H](NC(=O)Nc2ccc(Br)cc2Br)[C@H](c2ccccc2)O1,-17.7%
CCN(CC)CCOc1ccc2c(c1)C(=O)c1cc(OCCN(CC)CC)ccc1-2,21.1%
C1CCN2C[C@@H]3C[C@@H](CN4CCCC[C@@H]34)[C@H]2C1,2.73%
CCOC(=O)C1=C(C)NC2=C(C(=O)CC(C)(C)C2)C1c1ccc(-c2ccccc2)cc1 (stereo not shown),2.94%
COc1ccc(CCN(C)CCCOc2ccc(S(=O)(=O)c3c(C(C)C)c4ccccc4n3C)cc2)cc1OC,-3.04%
CC(C)(C)NS(=O)(=O)c1cncc(-c2cc(F)c3nc(N)nn3c2)c1,-16.9%
Cc1[nH]c2ccc(F)cc2c1-c1nc2c3cccnc3c3ncccc3c2[nH]1,-15.9%
Cc1ccc(N(CC2=NCCN2)c2cccc(O)c2)cc1,9.9%
Cn1c(-c2ccccc2)nnc1S(C)(=O)=O,2.02%

# Series 4
# Target: Centromere-binding protein 1, full length, N-terminal tag (CBF1, Saccharomyces cerevisiae, UniProt P17106, residues 1-351)
# Chain of UniProt P17106 (whole entry, looked up): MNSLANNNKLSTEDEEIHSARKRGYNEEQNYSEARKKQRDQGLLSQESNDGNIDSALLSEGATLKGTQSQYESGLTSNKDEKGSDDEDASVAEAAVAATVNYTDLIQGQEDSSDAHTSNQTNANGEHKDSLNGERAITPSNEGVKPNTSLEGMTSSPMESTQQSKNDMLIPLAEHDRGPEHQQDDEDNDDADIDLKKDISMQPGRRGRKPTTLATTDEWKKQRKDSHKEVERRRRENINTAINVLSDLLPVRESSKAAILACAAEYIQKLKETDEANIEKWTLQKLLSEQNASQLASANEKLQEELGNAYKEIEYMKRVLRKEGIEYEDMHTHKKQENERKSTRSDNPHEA
# Technique: protein-binding microarray
# Form: double-stranded DNA, one strand shown
# Medium: in vitro
# Concentration: 0.8 µM
# Setting: whole 60-bp probe, no competitor
# Direction: higher = stronger binding
# All sequences stand within: … GTCTTGATTCGCTTGACGCTGCTG
Strand,fluorescence intensity
CTATTACTAAAAAATCGCGTGCACTTTCATGGTTTC,583 a.u.
CTATAAATAAGAGGGTACGTGATTATAAACAGATTC,956 a.u.
GAACTAAAAAGTTCCCACGTTCTCTTGTACGACTAG,546 a.u.
GAATCTGAAGTACGTCACCTTGCAATTGAATATTAG,526 a.u.
CTAAATCTTTTTTGTCACATGTACACACTCATATTC,3270 a.u.
CTATTTTGGAAGTTTCACGATATCGATAATGCTTTC,540 a.u.
CTAAGTAAATACCATAACGTGCTCACATTTGTCTTC,823 a.u.
GAAATTTTGAAATGCGTACACGTGAATTTTAGCTAG,3600 a.u.

# Further values, each from its own experiment
# RUNX3 Runt domain: Runt-related transcription factor 3, Runt domain (RUNX3, Homo sapiens, UniProt Q13761, residues 53-186)
# Chain of UniProt Q13761 (53-186, looked up): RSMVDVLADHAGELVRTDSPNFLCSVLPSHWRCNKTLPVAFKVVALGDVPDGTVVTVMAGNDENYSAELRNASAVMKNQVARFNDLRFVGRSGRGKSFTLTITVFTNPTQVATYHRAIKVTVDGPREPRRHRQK
Substance,target or system,assay,test system,conditions,scale,endpoint,value
CGGACCGGCCCGGGCATGTCTCCTGACATGCCCGGGCCGGTCCGACACTC (5mC at 6 38),"Cellular tumor antigen p53, full length (TP53, Homo sapiens, UniProt P04637, residues 1-393)",protein-binding microarray,"hairpin DNA, in vitro","not given, whole hairpin DNA, median over replicate spots","relative to: not given, higher = stronger binding",median fluorescence,12200 a.u.
[H]/N=C(/NCCCCC)N/N=C/c1c[nH]c2ccc(OC)cc12,HEK-293T,"pseudovirus infection, FDA-approved drug library screen",VSV pseudotyped with SARS-CoV-2 spike,"10 µM, 16 h",relative to: vehicle-treated,GFP-positive cells,97.8%
GAGGCCTGTCGGGGTTGGCCTCCTGGCCAACCCCGACAGGCCTCACACTC (5mC at 33),RUNX3 Runt domain,protein-binding microarray,"hairpin DNA, in vitro","not given, whole hairpin DNA, median over replicate spots","relative to: not given, higher = stronger binding",median fluorescence,5210 a.u.
NC(=S)NN=Cc1ccncc1,"Replicase polyprotein 1ab, main protease (rep, Severe acute respiratory syndrome coronavirus 2, UniProt P0DTD1)","enzyme activity, inhibitor",,"20 µM, primary screen",,inhibition,48.4%
GAGGCCGTTTTTTTGGGGCCTCCTGGCCCCAAAAAAACGGCCTCACACTC,"Homeobox protein Hox-B13, full length (HOXB13, Homo sapiens, UniProt Q92826, residues 1-284)",protein-binding microarray,"hairpin DNA, in vitro","not given, whole hairpin DNA, median over replicate spots","relative to: not given, higher = stronger binding",median fluorescence,3530 a.u.
GAGGCCCCACCGCAACAGCCTCCTGGCTGTTGCGGTGGGGCCTCACACTC (5mC at 8),RUNX3 Runt domain,protein-binding microarray,"hairpin DNA, in vitro","not given, whole hairpin DNA, median over replicate spots","relative to: not given, higher = stronger binding",median fluorescence,6580 a.u.

# Excerpt of the above (series 3):
SMILES,inhibition
CC(=O)N[C@@H](CSC/C=C(\C)CC/C=C(\C)CCC=C(C)C)C(=O)O,3.6%
COc1ccc(C(=O)c2ccccc2)c(O)c1,17.2%
C[n+]1ccccc1/C=N/O,1.51%
C[C@@H]1C(=O)O[C@H]2[C@H](O)[C@@]34[C@H]5C[C@@H](C(C)(C)C)[C@]36[C@@H](OC(=O)[C@@H]6O)O[C@@]4(C(=O)O5)[C@@]12O,4.14%
COC(=O)Nc1nc2cc(Sc3ccccc3)ccc2[nH]1,24.2%
COc1ccc(-c2nc3cc(C4=NNC(=O)CC4C)ccc3[nH]2)cc1 (stereo not shown),5.16%
CCO/N=C(\C(=O)N[C@@H]1C(=O)N2C(C(=O)[O-])=C(Sc3nc(-c4cc[n+](C)cc4)cs3)CS[C@H]12)c1nsc(NP(=O)(O)O)n1,1.1%
CCn1c(=O)c(-c2ccc(Cl)cc2Cl)cc2cnc(Nc3ccc(N4CCNCC4)c(F)c3)nc21,-9.48%
CN1CCCC(CN2c3ccccc3Sc3ccccc32)C1 (stereo not shown),5.83%
